# Results collected from several papers.
# Parts stem from different laboratories: compare values within a part only.

# Sample 1
# Target: Replicase polyprotein 1ab, polymerase (rep, Severe acute respiratory syndrome coronavirus 2, UniProt P0DTD1)
# Read-out: enzyme activity
# Mode: inhibitor
# Concentration: 20 µM
Structure (SMILES),inhibition
Cn1c(=O)c2c(ncn2CC(=O)Nc2ccc(-c3ccccc3)nn2)n(C)c1=O,-12.9%
CC(C)(Oc1ccc(Cl)cc1)C(=O)OCCOC(=O)c1cccnc1,0.15%
CC1(C)C(=O)N(c2ccc(C#N)c(C(F)(F)F)c2)C(=O)N1CCCCO,-10.6%
C=CCOc1ccccc1OCC(O)CNC(C)C (stereo not drawn),1.2%
CC(C)(C)NCC(O)c1cc(Br)no1 (stereo not drawn),0.51%
NC1=NCC2c3ccccc3Cc3ccccc3N12 (stereo not drawn),1.52%
O=C(Nc1ccc2[nH]ccc2c1)c1ccccc1,-1.1%
CC1CCc2c(N3CCC(O)CC3)c(F)cc3c(=O)c(C(=O)O)cn1c23 (stereo not drawn),-5.92%
C/C(=C\c1csc(C)n1)[C@@H]1C[C@@H]2O[C@]2(C)CCC[C@H](C)[C@H](O)[C@@H](C)C(=O)C(C)(C)[C@@H](O)CC(=O)O1,-5.23%
COc1ccc(CC2NCCc3cc(OC)c(OC)cc32)cc1OC (stereo not drawn),-1.44%
COc1c(C)c2c(c(O)c1C/C=C(\C)CCC(=O)OCCN1CCOCC1)C(=O)OC2,0.18%
CCOC(=O)c1cnc2c(cnn2CC)c1NN=C(C)C,1.35%
Cc1ccc(C(=O)c2cc(O)c(O)c([N+](=O)[O-])c2)cc1,63%
Cc1nc2ccc(-n3ncc(C(=O)c4cc5ccccc5[nH]4)c3N)cc2[nH]1,-5.63%
CN(C)NC(=O)CCC(=O)O,-8.42%
CCc1cccc(CC)c1NC(=O)CN(CC(=O)O)CC(=O)O,-3.84%
CCCc1c2oc(C(=O)O)cc(=O)c2cc2c(=O)cc(C(=O)O)n(CC)c12,7.4%
Fc1ccc([C@@H]2CCNC[C@H]2COc2ccc3c(c2)OCO3)cc1,-2.11%
Cc1cn([C@H]2O[C@@H](CO)[C@H](O)[C@H]2F)c(=O)[nH]c1=O,-3.11%
CC1=C(/C=C/C(=C/C=C/C(C)=C/C(=O)O)c2ccc(C)cc2)C(C)(C)CCC1,-0.1%
Cn1c(COP(=O)(NCCBr)NCCBr)cnc1[N+](=O)[O-],-7.49%
O=S(=O)(c1ccccc1F)N1CCOc2c(N3CCNCC3)cccc21,7.6%
O=C1c2ccccc2-c2n[nH]c3cccc1c23,0.91%
CC1=C[C@H](O)CC(C)(C)[C@H]1/C=C/C(C)=C/C=C/C(C)=C/C=C/C=C(C)/C=C/C=C(C)/C=C/C1=C(C)C[C@@H](O)CC1(C)C,0.4%
COc1cc(C)c2c(Oc3cccc(C(F)(F)F)c3)c(OC)cc(NC(C)CCCN)c2n1 (stereo not drawn),1.22%

# Sample 2
# Target: Histone acetyltransferase KAT6A, winged helix 2, GST fusion (KAT6A, Homo sapiens, UniProt Q92794, residues 85-181)
# Technique: protein binding microarray
# Form: double-stranded DNA, one strand shown
# Matrix: in vitro
# Concentration: not given
# Notes: 8-mer, flanks averaged, mean of 2 arrays, mostly near background
# Baseline: not given
# Direction: higher = stronger binding
# Target sequence (chain): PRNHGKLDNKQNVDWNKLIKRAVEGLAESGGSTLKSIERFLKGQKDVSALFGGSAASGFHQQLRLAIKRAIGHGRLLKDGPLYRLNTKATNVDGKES
Oligonucleotide,E-score
AACCCAGT,-0.0481
CGTAGACG,-0.0383
GCGGGCAC,0.166
AATTGCCA,-0.067
ACTACCTG,-0.166
TACATGGA,-0.238
AGTGAGGC,0.0189
AGTTTGCC,0.0528

# Sample 3
# Target: Replicase polyprotein 1ab, main protease (rep, Severe acute respiratory syndrome coronavirus 2, UniProt P0DTD1)
# Read-out: enzyme activity
# Mode: inhibitor
# Concentration: 20 µM
# Notes: hit confirmation
SMILES,inhibition
O=C(CCl)c1ccccc1,110%
S=C(OC1CC2CC1C1CCCC21)[S][K] (stereo not drawn),41.4%
COc1cc(O)c2c(c1)C(=O)c1cc(C)cc(O)c1C2=O,38.3%
CCCCC/C=C/C/C=C/C/C=C/C/C=C/CCCC(=O)O,56.3%

# Sample 4
# Cell line: HEK-293T/ACE2
# Concentration: concentration not given
# Time: 16 (unit not given)
# Baseline: vehicle
Structure (SMILES),viability [%]
O=c1ccn([C@@H]2O[C@H](CO)[C@@H](O)[C@H]2O)c(=O)[nH]1,104
O=C1CN2Cc3c(ccc(Cl)c3Cl)N=C2N1,103
CC(=O)OC(C)C[N+](C)(C)C (stereo not drawn),101
CCCc1nc2c(C)cc(-c3nc4ccccc4n3C)cc2n1Cc1ccc(-c2ccccc2C(=O)O)cc1,101

# Sample 5
# Target: Interferon regulatory factor 7, full length, phosphomimetic (IRF7, Homo sapiens, UniProt Q92985, residues 1-503, S101K/S471D/S472D/S475D/S476D/S477D/S483D/S484D/S487D)
# Technique: protein-binding microarray
# Form: double-stranded DNA, one strand shown
# Matrix: in vitro
# Concentration: 250 nM
# Notes: 60-bp whole probe
# Together with: salmon DNA 0.4 mg/ml
# Baseline: random background probes
# Direction: higher = stronger binding
# Shared flanks, not repeated: GCCTAGCAC … GTCTTGATTCGCTTGACGCTGCTG
# Residues (chain): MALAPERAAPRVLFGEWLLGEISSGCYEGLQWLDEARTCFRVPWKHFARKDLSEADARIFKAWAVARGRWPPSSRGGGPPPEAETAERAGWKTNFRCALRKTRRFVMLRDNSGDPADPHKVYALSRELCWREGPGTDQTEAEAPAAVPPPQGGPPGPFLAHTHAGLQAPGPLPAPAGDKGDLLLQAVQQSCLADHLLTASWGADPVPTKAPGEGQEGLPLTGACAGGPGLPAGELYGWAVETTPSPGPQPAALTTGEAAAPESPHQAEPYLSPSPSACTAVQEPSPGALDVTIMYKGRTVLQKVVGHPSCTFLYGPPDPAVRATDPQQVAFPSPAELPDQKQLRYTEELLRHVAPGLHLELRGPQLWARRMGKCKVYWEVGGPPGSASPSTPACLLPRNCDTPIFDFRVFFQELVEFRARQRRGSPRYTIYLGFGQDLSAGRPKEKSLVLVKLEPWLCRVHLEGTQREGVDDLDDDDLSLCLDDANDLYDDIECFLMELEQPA
Oligonucleotide,log fluorescence [z-score]
GACGGTATCCTTATCGTGACGTGCTAG,-0.0751
GACGATAACGGGACTGGAGACGTGCTA,-0.508
GAAGGTCACAAAGACTTCATGTGCTAG,-0.526
TCAAGGTCCCTTTTCATACTGTGCTAG,1.58
TCATGTGTAGGTCTTAAACTGTGCTAG,-0.455
GACGGACTGTGGACTGGGGACGTGCTA,-0.564
CTGCGGTGAGTGCGTTATCGGTGCTAG,-1.24
GTCGGTTTCGGTATCGGGACGTGCTAG,11.1

# Sample 6
# Target: RNA binding protein fox-1 homolog 2, RRM domain, GST-SBP tag (RBFOX2, Homo sapiens, UniProt O43251-10, residues 100-194)
# Technique: RNA Bind-n-Seq
# Form: RNA
# Matrix: in vitro
# Concentration: 365 nM
# Notes: natural RNA segment, single round, ends assumed
# Baseline: no-protein control
# Direction: higher = stronger binding
# Shared flanks, not repeated: GGGAGUUCUACAGUCCGACGAUC … UGGAAUUCUCGGGUGCCAA
# Target sequence (chain): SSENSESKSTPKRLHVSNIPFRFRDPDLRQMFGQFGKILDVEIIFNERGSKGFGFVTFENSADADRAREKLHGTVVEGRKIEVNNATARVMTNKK
Oligonucleotide,RBNS enrichment (R)
AGAGCUUUUCUUCAUCCAGAAUUGCCCUCUGGGCUCCUUUGGUAACAGAUGGAGCUCCUUCCUAGCUAGGGAGACCUUAUGAGAAGUGGAUGGUAGGAGGAGUCACUAAU,0.281
GAAAUUUUGUACAUUGCUUUUCCCACCUUUUCCUUUUUCUUCUUUCUUGUCUGUAUUGGUUUUUGAUCACGGCCUGGUGUUGUGAUACUGGGAAGAGCAUUAGCCAAGAA,0.849
AAGGCAGAGCUGGGAUGAAAACAGGGCUGAAAAGACUCAGGGCCAAUUAUUGGCUGAGCCCACGGUCCCCUCAGCAGGGAUGCGAUGGUCUCUGAAUCAGUGUGCAGCUG,0.503
GCUGGUGUUGGUACCUGUGGAUUUUUCUAUACUGAUGUUUUCGUUUUGCCAAUAUAAUGAGUAUUACAUUGGCCUUGGGGGACAGAAAGGAGGAAGUUCUGACUUUUCAG,0.398
CAUGAGAGUUUUUCUAAAUCUACAUGAAAAACAAAUUUUCCUGGGUUUCAGUACAUUGGCUUUUACAUCAAAAACUAACAGGGCACAGUUUGACCUGUUUAGUGUAUUCU,0.286
GUAAUGCCUCUGUUAACUUUGCCAGGAGCUUUGAGAGUCUGCCCUCUCCCACCCUUCCUGAACCAUGACCACCACCAGCUCUAGGGUCGUAAUGUUGGAGAUCAGGAAUA,0.511
CUCUGCAAGAGCCAUGCCUUCUCUCAUGUGUGAGCCCCUUCUGCCCACAGCUGCCGCGGUGGCCCCUAGCCUGAGGGGCCUGGAGUCGUGGCCCUGCAUUUCUGGGUAGG,0.95
AGCUUUACAACUAACAGCGCGCUAGAUGGCAGUUAAUUCGCAGUUAAAGAUAAUGCUUUUUAUUUACACGAAUAUAUCAAGUAGUACCCUCCUAUUGUAUUCACUUCUUC,0.948

# Excerpt of the above (sample 1):
Structure (SMILES),inhibition
COc1c(C)c2c(c(O)c1C/C=C(\C)CCC(=O)OCCN1CCOCC1)C(=O)OC2,0.18%
Fc1ccc([C@@H]2CCNC[C@H]2COc2ccc3c(c2)OCO3)cc1,-2.11%
Cn1c(COP(=O)(NCCBr)NCCBr)cnc1[N+](=O)[O-],-7.49%
COc1cc(C)c2c(Oc3cccc(C(F)(F)F)c3)c(OC)cc(NC(C)CCCN)c2n1 (stereo not drawn),1.22%
CC(C)(C)NCC(O)c1cc(Br)no1 (stereo not drawn),0.51%
O=S(=O)(c1ccccc1F)N1CCOc2c(N3CCNCC3)cccc21,7.6%
COc1ccc(CC2NCCc3cc(OC)c(OC)cc32)cc1OC (stereo not drawn),-1.44%
